Assay results gathered from unrelated publications.
Each line is one published result; not all experiments were run side by side. ± marks the error that the study gave.

Cc1[nH]c(C)c(S(=O)(=O)Nc2ccc(C(F)(F)F)c(Cl)c2)c1C(=O)N1CCC(F)(F)C1 gave an AUC(0-inf) of 97600 ng·h/g (mouse, plasma; intraperitoneal, 40 mg/kg).
For CC(C)[C@@H](CS(=O)(=O)C(C)C)N1C(=O)[C@@](C)(CC(=O)O)C[C@H](c2cccc(Cl)c2)[C@H]1c1ccc(Cl)cc1, the AUC(0-inf) was 106 ± 13.1 ng·h/mL (FVB mouse, wild type, spinal cord; intravenous, 20 mg/kg).
The AUC(0-inf) of O=C1CCC(N2Cc3cc(CO)c(F)cc3C2=O)C(=O)N1 (stereo not drawn) is reported as 85.1 ± 39.4 ng·h/mL (male CD-1 mouse, plasma; oral, 10 mg/kg of parent drug).
COc1ccc2nc(-c3ccccn3)c(N(C)c3ccc(F)cc3)n2c1 has an AUC(0-inf) of 1320 ng·h/mL (CD1 mouse, male, fasted, plasma; oral, 50 mg/kg, added: ABT 50 mg/kg).
For CCOC(=O)C1=C(CN2CCC[C@@H]2C(=O)Nc2ccc(B(O)O)cc2)NC(c2nccs2)=N[C@H]1c1ccc(F)cc1Br, the AUC(0-inf) was 377 ± 23.7 ng·h/mL (ICR mouse, plasma; oral, 10 mg/kg).
O=[N+]([O-])c1ccc(-c2ccc(O)cc2)c2cccnc12 has an AUC(0-inf) of 140 ng·h/mL (male ICR mouse, plasma; intravenous, 1 mg/kg).
CC[C@H](C)[C@@H]1NC(=O)[C@@](C)(NC(=O)[C@H](CCCNC(=N)N)NC(=O)[C@H](CC(C)C)NC(=O)[C@@H](NC(=O)[C@H](CCC(N)=O)NC(=O)[C@H](CC(C)C)NC(C)=O)[C@@H](C)O)CCCC=CCCC[C@@](C)(C(=O)N[C@@H](CC(C)C)C(=O)N[C@@H](Cc2ccc3ccccc3c2)C(N)=O)NC(=O)[C@H](CCCNC(=N)N)NC(=O)[C@H](CCC(N)=O)NC1=O has an AUC(0-inf) of 45300 ng·h/mL (male BALB/c mouse, plasma; intramuscular, 5 mg/kg).
CC(=O)NCc1cc2c(cc1F)C(=O)N(C1CCC(=O)NC1=O)C2 (stereo not drawn) has an AUC(0-inf) of 12.3 ± 9.8 ng·h/mL (male CD-1 mouse, plasma; oral, 10 mg/kg of parent drug).
With CC(=O)N(C)C1CCN(c2cc(F)cc(NC(=O)c3cc4c(F)ccc(C)c4[nH]3)c2)C1 (stereo not drawn) the AUC(0-inf) was 697 ng·h/mL (CD1 mouse; intravenous, 1 mg/kg).

Some of these lines once more:
For CCOC(=O)C1=C(CN2CCC[C@@H]2C(=O)Nc2ccc(B(O)O)cc2)NC(c2nccs2)=N[C@H]1c1ccc(F)cc1Br, the AUC(0-inf) was 377 ± 23.7 ng·h/mL (ICR mouse, plasma; oral, 10 mg/kg).
